Assay results collected from several papers.
“And” joins repeats or separate records; there may be more than shown. Numbers after ± are the reported error.

| Structure (SMILES) | cell line | assay | setting | how to read | quantity | result |
| --- | --- | --- | --- | --- | --- | --- |
| COc1ccccc1-c1ccncc1C(=O)Nc1nnc(OCc2ccc(Cl)cc2)s1 | PEO1 BRCA2-mutant | – | 0.5 µM, together with: olaparib 2 µM | – | colony survival | 0% |
| CCN(CC)CC(=O)Nc1cccc(-n2cc(-c3ccc4ccc(-c5cn(-c6cccc(NC(=O)CN(CC)CC)c6)nn5)cc4c3)nn2)c1 | RCC4 | PCR array, measured: CTGF | 5 x IC50, 4 h, normoxia | baseline: untreated | fold regulation | -1.79 |
| O=C(C[Se]C(=O)C12CC3CC(CC(C3)C1)C2)Nc1cccc(C(F)(F)F)c1 | NCI60 renal subpanel | cell growth | 10 µM, 48 h, one-dose | – | mean growth percent | -66.6% |
| COC1=C2CC(C)CC(OC)C(O)C(C)C=C(C)C(OC(N)=O)C(OC)C=CC=C(C)C(=O)NC(=CC1=O)C2=O (centres unmarked) | Rh30 | ChIP-seq, measured: H3K36me3 peak | concentration not given, FIGNL1 TTS chr7:50505600-50516799 | baseline: untreated control | log fold change | -0.538 |
| C=CC(=O)N1[C@H](c2ccc3c(c2)OCO3)c2[nH]c3ccccc3c2C[C@H]1C(=O)N1CCOCC1 | 22Rv1 SF3B1 C1111S | ATAC-seq profile | concentration not given, at FOXA1-binding sites, unit not given | baseline: parental 22Rv1 | Pearson correlation | 0.88 |
| Cc1cc(N)ccc1-c1cc2c(N3CCC[C@H](C(=O)NCc4ccc(OC(F)(F)F)cc4)C3)ncnc2[nH]1 | NCI-H2228 | cell growth or viability, MTT | 5 µg/mL, 72 h | – | inhibition | 86% |
| [BH3-][P+]1(c2ccccc2)CCCCC1 | SW480 | annexin V/PI flow cytometry | IC50, 72 h | – | early apoptotic cells | 2.7% |
| CCCC[C@H](NC(=O)[C@H](CC(C)C)NC(=O)[C@H](CO)NC(=O)[C@H](CO)NC(=O)[C@H](C)NC(=O)[C@H](CO)NC(=O)[C@H](C)N)C(=O)N[C@@H](CC(=O)O)C(=O)N[C@@H](CCCCN)C(=O)N[C@@H](CCC(=O)O)C(=O)N[C@@H](C)C(=O)N[C@H](C(=O)N[C@@H](Cc1ccc(O)cc1)C(=O)N[C@@H](Cc1ccccc1)C(=O)N[C@@H](C)C(=O)N[C@@H](Cc1c[nH]cn1)C(=O)N[C@@H](CC(C)C)C(=O)N[C@@H](CC(=O)O)C(=O)N[C@H](C(=O)N[C@H](C(=O)N[C@@H](Cc1c[nH]c2ccccc12)C(=O)O)[C@@H](C)CC)[C@@H](C)CC)C(C)C | COS-7 ETBR-GFP | calcium flux, agonist | ETBR/ETAR ratio 1:3 | – | Emax | 39 ± 5% |
| COc1cc(OC)c(F)c(/C=C/c2cnc3ccn(S(=O)(=O)c4cn(CCF)cn4)c3n2)c1F | SNU-16 (FGFR2-amplified) | cell proliferation | 1000.0 nM | – | inhibition | 69% and 69.4% |
| Cn1ncc2cc(-c3cncc(Cl)c3N3CCC4(CCNC4=O)CC3)ccc21 | LS174T | gene expression, microarray, measured: CNN1 mRNA | concentration not given, 24 h | baseline: untreated cells | log2 fold change | -2.22 |
| COc1ccc2c(c1)c(CC(=O)[Se]CC(=O)Nc1cccc(C(F)(F)F)c1)c(C)n2C(=O)c1ccc(Cl)cc1 | NCI60 renal subpanel | cell growth, inhibitor | five-dose | – | GI50 | 1.97 µM |
| O=C(N/N=C/c1ccccn1)c1cc(-c2ccc(Cl)cc2)nc2ccccc12 | LDR | silenced CMV-GFP reporter derepression, qHTS | – | – | Emax | 72% |
| CC(C)c1ccc(N(C)c2ccc3c(c2)OCC[C@H]3CNc2cnccc2C(=O)O)cc1 | 786-O | cell growth, CellTiter-Glo | 7 days | – | IC50 | 0.0225 µM |
| N#Cc1cccc(/C=C/C(=O)c2ccc(O)cc2)c1 | U-87 MG | measured: PPAN | concentration not given | baseline: untreated | fold change | 0.062 |
| Cc1cc(NC2CCN(C)CC2)ccc1-c1cc2c(N3CCC[C@H](C(=O)N[C@H](C)c4ccccc4)C3)ncnc2[nH]1 | NCI-H2228 | cell growth or viability, MTT | 0.04 µg/mL, 72 h | – | inhibition | 43% |
| CN(C)c1ccc(-n2cc(COC(=O)[C@@]3(C)C=C(C(=O)OC(C)(C)C)C(=O)CC3)nn2)cc1 | HeLa | quantitative western blot | concentration not given, 30 (unit not given), together with: EGF | – | pRSK/tubulin ratio | 0.0767 |
| Cn1ncc(-c2ccc3c(=O)[nH]nc(CN)c3c2)c1-c1c(F)c(Cl)cc(OC2CC2)c1C#N | CAKI-2 | cell viability, inhibitor, CellTiter-Glo | 120 h, baseline-subtracted | – | IC50 | 2.6 µM |
| COc1ccc(O)cc1-c1c[nH]c2ncc(-c3cncc(C(=O)N(C)C)c3)cc12 | Ba/F3 BCR-ABL T315I | cell proliferation | 72 h | – | GI50 | 0.0549 ± 0.0028 µM |
| CO[C@@H]1[C@@H](OC(N)=O)[C@@H](O)[C@H](Oc2ccc3c(O)c(NC(=O)c4ccc(O)c(CC=C(C)C)c4)c(=O)oc3c2C)OC1(C)C | HCT-116 parental | – | 200 µM, replicate 2 | – | colony count | 9.5 |
| O=C(NCc1ccc(OC(F)(F)F)cc1)[C@H]1CCCN(c2ncnc3[nH]c(-c4cccs4)cc23)C1 | NCI-H2228 | cell growth or viability, MTT | 0.008 µg/mL, 72 h | – | inhibition | 15.2% |
| COc1c(C)c(O)c(C(=O)C=Cc2ccccc2)c(OC)c1C | KKU-M213 | SRB | – | baseline: normal over KKU-M213 IC50 | selectivity index | 1.06 |
| O=C(C[Se]C(=O)c1cc2ccccc2o1)Nc1cccc(C(F)(F)F)c1 | NCI60 NSCLC subpanel | NCI60 five-dose screen | – | – | GI50 | 1.62 µM |

| Structure (SMILES) | cell line | assay | setting | how to read | quantity | result |
| --- | --- | --- | --- | --- | --- | --- |
| COC(=O)c1cc(NC2=NC(=O)C(=Cc3ccc(N(C)C)cc3)S2)ccc1OC(C)=O | MCF7 | GC-MS, measured: L-Threonine | 1 µM | baseline: DMSO | metabolite level | -0.55 fold change |
| CNS(=O)(=O)Nc1nccc(Cc2c(C)c3ccc(Oc4ncccc4F)cc3oc2=O)c1F | SW480 | cell viability | 7 days | – | IC50 | 0.0159 µM |
| COc1ccccc1-c1ccncc1C(=O)Nc1ccc(OCc2ccc(Cl)cc2)nn1 | DLD-1 BRCA2-/- | – | 20 µM | baseline: untreated | colony survival | 96% and 100% |
| Cc1cc(NC2CCN(C)CC2)ccc1-c1cc2c(N3CCC[C@H](C(=O)N4CCCCC4)C3)ncnc2[nH]1 | NCI-H2228 | cell growth or viability, MTT | 1 µg/mL, 72 h | – | inhibition | -3.18% |
| CN1CCCNC(=O)c2cccc(c2)C(=O)NCCCN(C)CCCNc2cccc3c2C(=O)c2cccc(c2C3=O)NCCC1 | SAS | RNA-Seq, measured: PLPBP mRNA | 1 µM, 6 h | baseline: untreated cells | log2 fold change | 0.811 |
| Fc1cncc(-c2ccc3[nH]c4ncnc(N[C@H]5CC[C@H](N6CCOCC6)CC5)c4c3c2)c1 | TMD8 parental | immunoblot | concentration not given, 24 h | – | c-MYC level | decreased |
| Cc1cc(Cl)cc(-c2ccnc3cc(CN4C(=O)C5C(C4=O)C5(C)C)sc23)c1C[C@@H]1CNCCO1 (some centres unmarked) | CHP-212 resistant | PI flow cytometry | 0.3 µM, 24 h | – | G1 phase cells | 72.7% |
| Cc1ncsc1-c1ccc(C(C)NC(=O)C2CC(O)CN2C(=O)C(NC(=O)CCCCCCCCCCN2CCCC(Nc3ncc(Cl)c(Nc4ccccc4S(=O)(=O)C(C)C)n3)C2)C(C)(C)C)cc1 (centres unmarked) | 22Rv1 | RNA-seq, measured: ZNF658B mRNA | concentration not given | baseline: DMSO | log2 fold change | -1.55 |
| CSC(=S)N/N=C(\C)c1ccc(Nc2nnc(-c3ccc(Cl)cc3)c3ccccc23)cc1 | HepG2 | cell growth or viability, MTT | 10 µM | – | cell death | 92.2% |
| Cc1cc(NC2CCN(C)CC2)ccc1-c1cc2c(N3CCC[C@H](C(=O)NCc4ccc(Cl)nc4)C3)ncnc2[nH]1 | NCI-H2228 | cell growth or viability, MTT | 0.008 µg/mL, 72 h | – | inhibition | 6.86% |
| COC(=O)c1cc(NC2=NC(=O)C(=Cc3ccc(C)cc3)S2)ccc1OC(C)=O | MCF7 | GC-MS, measured: diacetone alcohol | 1 µM | baseline: DMSO | metabolite level | -1.11 fold change |
| O=C(NCc1ccc(OC(F)(F)F)cc1)[C@H]1CCCN(c2ncnc3[nH]c(-c4ccc(C(F)(F)F)cc4)cc23)C1 | NCI-H2228 | cell growth or viability, MTT | 0.008 µg/mL, 72 h | – | inhibition | 8.67% |
| O=[N+]([O-])C(=C\Nc1ccccc1O)/C=N/c1ccccc1O | LDR | silenced CMV-GFP reporter derepression, qHTS | – | – | EC50 | 3.16 µM |
| O=C(NCc1ccc(OC(F)(F)F)cc1)[C@H]1CCCN(c2ncnc3[nH]c(-c4ccccc4)cc23)C1 | NCI-H2228 | cell growth or viability, MTT | 5 µg/mL, 72 h | – | inhibition | 84.2% |
| CCN(C(=O)c1cc(F)ccc1Oc1nncnc1N1CCC2(C1)CN([C@H](CCCN(C)CCOC)C(C)C)C2)C(C)C | 786-O | cell growth | 72 h | – | GI50 | > 10 µM |
| CCNc1cc2c(cc1C)C1(c3cc(C)c(NCC)cc3O2)c2ccccc2C(=O)N1N=Cc1c[c-]c(-c2ccccn2)cc1.Cc1c(C)c(-c2ccc(-c3ccccc3)cc2)[c-](C)c1C.[Cl-].[Ir+3] | A549 | PI flow cytometry | 2 x IC50, 24 h | – | S phase cells | 33.6 ± 0.23% |
| Oc1c(/N=N/c2ccccn2)ccc2ccccc12 | LDR | silenced CMV-GFP reporter derepression, qHTS | – | – | EC50 | 10 µM |
| O=C(C[Se]C(=O)c1ccc2ccccc2n1)Nc1cccc(C(F)(F)F)c1 | NCI60 renal subpanel | cell growth | 10 µM, 48 h, one-dose | – | mean growth percent | -90% |
| COCCCCCNc1nc(NCCCCCCN(C)C)c2cc(NC(=O)/C=C/CN(C)C)ccc2n1 | MCF7 | CellTiter-Glo | 0.7812 µM, 72 h, unit not given | baseline: DMSO-treated cells | viability | 0.916 and 0.977 |
| Cc1ccc(C(C)C)c(OCc2ccc(C(=O)N/N=C/c3cccc(O)c3O)cc2)c1 | LDR | silenced CMV-GFP reporter derepression, qHTS | – | – | Emax | 35% |
| O=C(C[Se]C(=O)c1cc2ccccc2[nH]1)Nc1cccc(C(F)(F)F)c1 | NCI60 renal subpanel | total growth inhibition, inhibitor | five-dose | – | mean TGI | 3.22 µM |
| Cc1cc(NC2CCN(C)CC2)ccc1-c1cc2c(N3CCC[C@H](C(=O)NCc4ccc(OC(F)(F)F)cc4)C3)ncnc2[nH]1 | NCI-H2228 | cell growth or viability, MTT | 0.00032 µg/mL, 72 h | – | inhibition | 74% |

Excerpt of the above:
| Structure (SMILES) | cell line | assay | setting | how to read | quantity | result |
| --- | --- | --- | --- | --- | --- | --- |
| N#Cc1cccc(/C=C/C(=O)c2ccc(O)cc2)c1 | U-87 MG | measured: PPAN | concentration not given | baseline: untreated | fold change | 0.062 |
| Cn1ncc2cc(-c3cncc(Cl)c3N3CCC4(CCNC4=O)CC3)ccc21 | LS174T | gene expression, microarray, measured: CNN1 mRNA | concentration not given, 24 h | baseline: untreated cells | log2 fold change | -2.22 |
| CN(C)c1ccc(-n2cc(COC(=O)[C@@]3(C)C=C(C(=O)OC(C)(C)C)C(=O)CC3)nn2)cc1 | HeLa | quantitative western blot | concentration not given, 30 (unit not given), together with: EGF | – | pRSK/tubulin ratio | 0.0767 |
